Results pooled from the literature.
Each line is one published result; not all experiments were run side by side. Numbers after ± are the reported error.
Cell line: HepG2

| Structure (SMILES) | assay | conditions | how to read | measurement | result |
| --- | --- | --- | --- | --- | --- |
| O=C(CNc1cccc(S(=O)(=O)N2CCOCC2)c1)Nc1ccc(F)c(Cl)c1 | cell growth or viability |  |  | EC50 | > 25 µM |
| CSC(=NN=C(C)c1ccc(S(=O)(=O)N2CCC(C)CC2)cc1)N(C)C | annexin V/PI staining | IC50, 72 h |  | apoptotic cells early | 3.94% |
| NCCC(=O)N[C@@H](Cc1c[nH]cn1)C(=O)N[C@@H](Cc1c[nH]cn1)C(=O)NCCC(=O)O | MTT | 10 µg/mL, 6 h |  | viability | 13.8% |
| CC(=NN=c1sc(C(=O)c2ccccc2)nn1-c1ccccc1)c1ccc(S(=O)(=O)N2CCC(C)CC2)cc1 | annexin V/PI staining | IC50, 72 h |  | apoptotic cells total | 22.8% |
| Cc1ccc2nc(-c3ccc(F)c(F)c3)c(CN3CCN(c4cccc(C(F)(F)F)c4)CC3)n2c1 | cell growth or viability | 48 h |  | EC50 | > 50 µM |
| Cc1ccc(NCC(=O)NC2CCCCC2)cc1S(=O)(=O)N1CCOCC1 | cell growth or viability |  |  | EC50 | > 25 µM |
| CC(=O)O[C@@H]1CC[C@@]2(C)C(CC[C@]3(C)C2C(=O)C=C2C4[C@@H](C)[C@H](C)CC[C@]4(C)CC[C@]23C)[C@@]1(C)C(=O)OCC(=O)Oc1cc(C)ccc1C(C)C (some centres unmarked) | refers to: superoxide dismutase | 1 µM, added: acetaminophen 10 mM |  | SOD activity | 64 U/mg |
| CCOc1cccc2c1[O][Pt-2]1([Cl])[N+](=C2)CC[NH+]1c1ccccc1 (centres unmarked) | flow cytometry PI | concentration not given, 24 h |  | sub-G1 cells | 60 to 65% |
| Cc1ccc(Nc2ncc3c(n2)N(C)C(=O)N(c2cc(NC(=O)c4ccc(N5CCN(C)CC5)c(C(F)(F)F)c4)ccc2C)C3)cn1 | cell growth or viability, ATP luminescence | 72 h |  | GI50 | 0.876 µM |
| C=C1C(=O)C23CCC4C(C)(C)CCCC4(C)C2C(O)CC1C3 (single isomer, unassigned) | western blot, refers to: cleaved caspase-9 and caspase-3 | concentration not given |  | protein level | increased |
| O=C1/C(=C/c2ccc3c(c2)OCCO3)SC(=S)N1[C@@H]1O[C@H](CO)[C@@H](O)[C@H](O)[C@H]1O | annexin V/PI | IC50, 48 h |  | total apoptotic cells | 44.6% |
| Cc1ccc2nc(-c3ccccc3)c(CN3CCN(c4ccccc4)CC3)n2c1 | cell growth or viability | 48 h |  | EC50 | > 50 µM |
| N[C@@H](Cc1c[nH]cn1)C(=O)NCCC(=O)NCCC(=O)N[C@@H](Cc1c[nH]cn1)C(=O)O | MTT | 10 µg/mL, 6 h |  | viability | 16.9% |
| Cc1ccc(NCC(=O)N2CCNCC2)cc1S(=O)(=O)N1CCOCC1 | cell growth or viability |  |  | EC50 | > 25 µM |
| [NH2][Pt]1([NH2])([Cl])([O]C(=O)C(Cl)Cl)[O]C(=O)C2(CC(=O)C2)C(=O)[O]1 | annexin V/PI flow cytometry | 50 µM, 24 h |  | apoptotic cells | 28.8% |
| O=C(/C=C/c1ccccc1)OCCCC[P+](c1ccccc1)(c1ccccc1)c1ccccc1 | SRB | 48 h | reference: IC50 L02 over IC50 HepG2 | therapeutic index | 11.1 |
| O=C(O)CCNC(=O)[C@H](Cc1c[nH]cn1)NC(=O)[C@H](Cc1c[nH]cn1)NC(=O)CCNC(=O)[C@@H]1CCCN1 | LDH | 10 µg/mL, 6 h, 1% FBS |  | viability | 63.7% |
| C=CCOC(=O)C1C(C=O)=Cc2cc3c(cc2C1c1cc(OC)c(OC)c(OC)c1)OCO3 (centres unmarked) |  |  | reference: CC50 HepG2 over amastigote EC50 | selectivity index | > 3.3 |
| CN(C(=NN=C(c1ccccc1)c1ccccn1)[S][Ga]([Cl])[Cl])C1CCCCC1 | western blot, refers to: ferritin | 5 µM, 24 h | reference: control | protein level | 0.61 fold |

| Structure (SMILES) | assay | conditions | how to read | measurement | result |
| --- | --- | --- | --- | --- | --- |
| Cc1cc2nc(-c3cc4ccccc4nc3Cl)[nH]c2cc1C | flow cytometry | 8 µM, 48 h |  | cells in G2 phase | 40.6% |
| Cc1ccc2nc(-c3ccccc3)c(CN3CCN(c4cccc(Cl)c4Cl)CC3)n2c1 | cell growth or viability | 48 h |  | EC50 | > 50 µM |
| Cc1ccc(NCC(=O)Nc2ccc(F)cc2)cc1S(=O)(=O)N1CCOCC1 | cell growth or viability |  |  | EC50 | > 25 µM |
| CC(C)C1NC(=O)C(Cc2ccccc2)NC(=O)C(CCCCCC(=O)C2CO2)NC(=O)C2CCCCN2C1=O (centres unmarked) | cytotoxicity, MTS | 48 h |  | EC50 | > 25 µM |
| CCC[C@H]1CC[C@H](c2ccc(NC(=S)NC[C@@H]3[C@@H](O)[C@@H](O)[C@H]4[C@H](O)CCCN43)cc2)CC1 | fluorescent lectin imaging | 10 µM, 48 h |  | galectin-1 binding to cell surface | decreased |
| Cc1ccc(Nc2ncc3c(n2)N(C2CC2)C(=O)N(c2cc(NC(=O)c4cccc(C(F)(F)F)c4)ccc2C)C3)cn1 | cell growth or viability, ATP luminescence | 72 h |  | GI50 | 0.878 µM |
| Cc1ccc(NCCNc2ccc(F)c(Cl)c2)cc1S(=O)(=O)N1CCOCC1 | cell growth or viability |  |  | EC50 | > 25 µM |
| CC(=O)O[C@H]1CC[C@]2(C)[C@H]3C(=O)C=C4[C@@H]5C[C@@](C)(C(=O)OCc6ccccc6)CC[C@]5(C)CC[C@@]4(C)[C@]3(C)CC[C@H]2C1(C)C | annexin V/7-AAD flow cytometry | 4 µM, 48 h |  | apoptotic cells | 15.7% |
| Cc1ccc(Nc2ncc3c(n2)N(C)C(=O)N(c2cc(NC(=O)c4cc(N5CCC(O)CC5)cc(C(F)(F)F)c4)ccc2C)C3)cn1 | cell growth or viability, ATP luminescence | 72 h |  | GI50 | 0.743 µM |
| O=C(/C=C(O)/C=C/c1cccs1)/C=C/c1cccs1 | DCFH-DA, SRB-normalized | 1 µM | reference: untreated cells | intracellular ROS | 108 ± 9.4% |
| Cc1ccc2nc(-c3ccc(Cl)cc3)c(CN3CCN(c4cccc(C(F)(F)F)c4)CC3)n2c1 | cell growth or viability | 48 h |  | EC50 | > 50 µM |
| Cc1ccc(NC(C)(C)C(=O)Nc2ccc(F)c(Cl)c2)cc1S(=O)(=O)N1CC2CCC(C1)O2 | cell growth or viability |  |  | EC50 | > 25 µM |
| O=C(/C=C/c1ccc(O)cc1)OCCCC[P+](c1ccccc1)(c1ccccc1)c1ccccc1 | SRB | 24 h | reference: IC50 L02 over IC50 HepG2 | therapeutic index | 6.93 |
| CSC(=S)N/N=C(\C)c1ccc(S(=O)(=O)N2CCC(C)CC2)cc1 | annexin V/PI staining | IC50, 72 h |  | apoptotic cells early | 3.59% |
| Cc1c(C(=O)NNC(=S)Nc2ccc(Cl)cc2)nnn1Cc1nc2ccccc2[nH]1 | PI flow cytometry | concentration not given |  | cells in pre-G1 phase | 44.5% |
| Cc1ccc(NCC(=O)Nc2ccc(F)c(Cl)c2)cc1C(=O)N1CCOCC1 | cell growth or viability |  |  | EC50 | > 25 µM |
| Cc1ccc2nc(-c3ccc(F)c(F)c3)c(CN3CCN(c4ccc(F)cc4)CC3)n2c1 | cell growth or viability | 48 h |  | EC50 | > 50 µM |
| Cc1ccc(NCC(=O)N2CCC(F)(F)CC2)cc1S(=O)(=O)N1CCOCC1 | cell growth or viability |  |  | EC50 | > 25 µM |
| CC(=O)O[C@@H]1CC[C@@]2(C)C(CC[C@]3(C)C2C(=O)C=C2C4[C@@H](C)[C@H](C)CC[C@]4(C)CC[C@]23C)[C@@]1(C)C(=O)N/N=C1/C(=O)Nc2ccccc21 (some centres unmarked) | TNF-α production, ELISA, refers to: TNF-α | 10 µM, added: acetaminophen 10 mM | reference: acetaminophen-treated cells | inhibition | ~54% |

Some of these lines once more:
| Structure (SMILES) | assay | conditions | how to read | measurement | result |
| --- | --- | --- | --- | --- | --- |
| CSC(=S)N/N=C(\C)c1ccc(S(=O)(=O)N2CCC(C)CC2)cc1 | annexin V/PI staining | IC50, 72 h |  | apoptotic cells early | 3.59% |
| Cc1c(C(=O)NNC(=S)Nc2ccc(Cl)cc2)nnn1Cc1nc2ccccc2[nH]1 | PI flow cytometry | concentration not given |  | cells in pre-G1 phase | 44.5% |
| Cc1ccc(NCC(=O)Nc2ccc(F)c(Cl)c2)cc1C(=O)N1CCOCC1 | cell growth or viability |  |  | EC50 | > 25 µM |
